Assay results from different studies.
Every numbered part comes from another study and shows a few of its results, in no order. Substitutions count along the parent as printed.

Block 1 — technique: RNA Bind-n-Seq; form: RNA; medium: in vitro; concentration: 1 µM; notes: whole 134-nt RNA, ends assumed; with: 150 mM KCl; relative to: input library; reading: higher = stronger binding; measurement: log2 enrichment
Target: Ras GTPase-activating protein-binding protein 1, C-terminal RGG region (G3BP1, Homo sapiens, UniProt Q13283)
Chain of UniProt Q13283 (whole entry, looked up): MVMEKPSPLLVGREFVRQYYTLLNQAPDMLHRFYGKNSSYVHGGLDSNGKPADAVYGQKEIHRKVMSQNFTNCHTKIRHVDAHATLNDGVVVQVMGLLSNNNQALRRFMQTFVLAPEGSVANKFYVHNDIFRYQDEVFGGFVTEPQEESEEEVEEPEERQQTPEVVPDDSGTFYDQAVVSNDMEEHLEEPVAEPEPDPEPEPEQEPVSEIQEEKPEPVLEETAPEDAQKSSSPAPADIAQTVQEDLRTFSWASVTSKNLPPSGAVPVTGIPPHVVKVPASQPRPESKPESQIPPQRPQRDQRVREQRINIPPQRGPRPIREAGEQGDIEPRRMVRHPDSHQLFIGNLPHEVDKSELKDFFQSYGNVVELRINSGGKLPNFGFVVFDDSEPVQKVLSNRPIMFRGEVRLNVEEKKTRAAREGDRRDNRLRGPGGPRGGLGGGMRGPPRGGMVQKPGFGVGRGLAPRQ
Constant ends, left off below: GGGAGUUCUACAGUCCGACGAUC … UGGAAUUCUCGGGUGUCAAGG
ACCAUGCAGGUGUGCAUCUUUGGGAAGUGGGGCAAGGGGGGGAUAGGGAGGGGGGUAACACUUUGGGAACAGGUGGUCCCAGGUCGUUUC: -1.68
GAGCUGGAAGCUAUCAAAGCUCGAGUCAGGGAGAUGGAGGAAGAAGCUGAGAAGCUAAAGGAGCUACAGAACGAGGUAGAGAAGCAGAUG: -1.33
UCCUCAAGUCCUGUGCUACACAUCGUAUGUACCGAAUCGGUGGGUGGGUGGGAAAGUAUUAUGUUACGCCGUUCGGAUCUGCACUUCCAG: 1.58
AGUCCUGUGCUACACAUCGUAUGUACCGAAUCGGGAAAAGGGGAAAAGGGAAAAGGGGAAAGUAUUAUGUUACGCCGUUCGGAUCUGCAC: 0.447
UGGGAGAUGGAUUUUGUUUAUUUUUUUAGCUCAUUUCCAGGGGUGGGAAUUUUUUUUUAAUAUGUGUCAUGAAUAAAGUUGUUUUUGAAA: 3.33
GUCCUGUGCUACACAUCGUAUGUACCGAAUCGGGUUUUUGGGUUUUUGGGUUUUUGGGAAAGUAUUAUGUUACGCCGUUCGGAUCUGCAC: 0.129
UCCUGUGCUACACAUCGUAUGUACCGAAUCGGGGAAAAAAAGGGGAAAGGGGAAAGGGGAAAGUAUUAUGUUACGCCGUUCGGAUCUGCA: 2.68
ACCAUGCAGGUGGGCAUCUUUGGGAAGUGGGGCAAGGGGGGGAUAGAAAGGGGGGUAACACUUUGGGAACAGGUGGUCCCAGGUCGUUUC: -1.11
UUUGCAGGGAGUGGUACGGGUAUCACUUUCCGGAGCUGGUGAAGAUCAUCAACGACAAUGCCACAUACUGCCGUCUUGCCCAGUUUAUUG: -1.18

Block 2 — target: CCNB1, cyclin fold, Cln2 fusion (human); technique: yeast growth competition, sequencing; medium: yeast; notes: strong parent motif; relative to: not given; reading: higher = stronger binding; measurement: normalised enrichment score
Starting sequence: RBL2 docking peptide (human); STTRRRLFVENDS
STTRRRLFVENDC [S13C]: 1.06
STTRRRLFVYNDS [E10Y]: 0.382
SDTRRRLFVENDS [T2D]: 0.725
STTRRRLFVENDG [S13G]: 1.43
STTRRLLFVENDS [R6L]: 1.21
STTRRRLFVENIS [D12I]: 0.975
STTRRRHFVENDS [L7H]: 0.718
STTRRRLFVESDS [N11S]: 0.876
STTRRWLFVENDS [R6W]: 0.539
STTRRFLFVENDS [R6F]: 1.53
STTRGRLFVENDS [R5G]: 0.26
STLRRRLFVENDS [T3L]: 1.66
STTRRRLTVENDS [F8T]: 1.53
STTRRRNFVENDS [L7N]: 0.428
STTRRREFVENDS [L7E]: 0.658
STTRRRLFVENDK [S13K]: 0.538
STTRMRLFVENDS [R5M]: 1.06
STTRRRLFAENDS [V9A]: 1.26
STTRRKLFVENDS [R6K]: 1.11
STTRRRLKVENDS [F8K]: 0.797
STTRRRLFVENPS [D12P]: 0.884
LTTRRRLFVENDS [S1L]: 1.82
STTFRRLFVENDS [R4F]: 1.52
STTRPRLFVENDS [R5P]: 0.795
STTRRRLFVENDE [S13E]: 1.59

Block 3 — target: UBE2V2 UBC core domain (UniProt Q15819); technique: yeast two-hybrid; medium: yeast; notes: mostly zero background; relative to: not given; reading: higher = stronger interaction; measurement: lacZ reporter activity
B1: TRIM22 RING domain (UniProt Q8IYM9); chain KEVKMSPQEGQKRDVCEHHGKKLQIFCKEDGKVICWVCELSQEHQGHQTFRINEVVKECQEK
B2: TRIM48 RING domain (UniProt Q8IWZ4); chain ISQVFQRELTCPICMNYFIDPVTIDCGHSFCRPCFYLNWQDIPILTQCFECIKTIQQRNLKT
B3: PRKN RING domain (UniProt O60260); chain LIATNSRNITCITCTDVRSPVLVFQCNSRHVICLDCFHLYCVTRLNDRQFVHDPQLGYSLPCVAGCPNSLIKELHH
B4: RNF135 RING domain (UniProt Q8IUD6); chain PVWLAEDDLGCIICQGLLDWPATLPCGHSFCRHCLEALWGARDARRWACPTCRQGAAQQPHLR
B5: RNF24 RING domain (UniProt Q9Y225); chain KVKELNLHELCAVCLEDFKPRDELGICPCKHAFHRKCLIKWLEVRKVCPLCNMPVLQLAQLH
B6: Ltn1 RING domain (UniProt Q6A009); chain VDKRFEGVEDCMICFSVIHGFNYSLPKKACRTCKKKFHSACLYKWFTSSNKSTCPLCRETFF
Target sequence (chain): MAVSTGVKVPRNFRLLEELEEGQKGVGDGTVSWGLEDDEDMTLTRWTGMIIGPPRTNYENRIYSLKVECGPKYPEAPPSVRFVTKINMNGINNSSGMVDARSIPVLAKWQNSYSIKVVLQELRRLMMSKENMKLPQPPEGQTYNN
B1 (TRIM22 RING domain): 0
ALDRLEKLLRCSRCTNILREPVCLGGCEHIFCSNCVSDCIGTGCPVCYTPAWIQDLKI (BARD1 RING domain (UniProt Q99728)): 0
KEQLEKHNDICAICYQDMKSAVITPCSHFFHAGCLKKWLYVQETCPLCHCHLKNSSQLP (RNF145 RING domain (UniProt Q96MT1)): 0
B2 (TRIM48 RING domain): 0
B3 (PRKN RING domain): 0
B4 (RNF135 RING domain): 0
B5 (RNF24 RING domain): 0
KITELNPHLMCVLCGGYFIDATTIIECLHSFCKTCIVRYLETSKYCPICDVQVHKTRPLL (BMI1 RING domain (UniProt P35226)): 0
B6 (Ltn1 RING domain): 0
KLWDINAHITCRLCSGYLIDATTVTECLHTFCRSCLVKYLEENNTCPTCRIVIHQSHPLQ (PCGF3 RING domain (UniProt Q3KNV8)): 0

Block 4 — technique: DHFR PCA, deep sequencing; medium: yeast; with: (+)-ABA 200 µM; relative to: wild-type fitted maximum; reading: higher = stronger binding; measurement: relative binding score
Target: ABI1, truncated, D143A, DHFR fusion (Arabidopsis thaliana)
Notes: methotrexate growth selection, single substitutions
Starting sequence: PYL1, truncated, DHFR fusion (Arabidopsis thaliana); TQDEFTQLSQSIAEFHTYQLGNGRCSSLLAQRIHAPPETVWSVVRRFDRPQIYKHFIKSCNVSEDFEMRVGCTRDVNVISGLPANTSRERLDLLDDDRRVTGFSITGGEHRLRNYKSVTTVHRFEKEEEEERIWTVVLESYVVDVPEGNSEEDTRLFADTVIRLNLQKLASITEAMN
I33E: -2.11%
R69L: 96%
Q51T: 87.8%
D144N: 78.4%
N22T: 98.2%
L93A: 93.3%
F103V: 16.6%
G21S: 102%
T17L: 71.4%
E128P: 108%
E147W: 83.6%
N177T: 101%
V143Y: 16.3%
E125F: 105%
V70G: 67.8%
Y53V: 27.8%
E127Y: 99.3%
D153Y: 12.8%
A170C: 94.8%

A few entries again (block 4):
E128P: 108%
E147W: 83.6%
N177T: 101%
V143Y: 16.3%
E125F: 105%
V70G: 67.8%
Y53V: 27.8%
